Results collected from several papers.
A part holds a random share of what one study measured.

Study 1
Target: TAR DNA-binding protein 43, full length, His tag (TARDBP, Homo sapiens, UniProt Q13148, residues 1-414)
Method: RNA Bind-n-Seq
Molecule type: RNA
Sample: in vitro
Tested at: 20 nM
Setting: 6-mer, flanks averaged, single round
Added: 150 mM LiCl
Reference: input library
Reading: higher = stronger binding
| Sequence | 6-mer enrichment (R) |
| --- | --- |
| CUACCG | 0.835 |
| GAGGCA | 0.992 |
| UACCAU | 0.893 |
| GAUGCG | 1.08 |
| UCAACA | 0.804 |
| GGAUUG | 1.04 |
| GGCGCA | 1.02 |
| GCGAAA | 0.875 |
| UUUCUC | 1.02 |
| AUUCCG | 0.865 |
| CGCUUU | 0.99 |
| AUAACC | 0.866 |
| GUAAUG | 1.06 |
| CUGUCC | 0.924 |
| GACCCC | 1.07 |
| AGUAUC | 0.849 |
| GAGGAC | 0.991 |
| UCACGU | 0.88 |
| CUCCCU | 1.15 |
| CACCGC | 0.981 |
| CAAGAU | 0.805 |
| GGCGUC | 0.964 |
| UAUAUC | 0.901 |
| UCAGCU | 0.844 |

Study 2
Target: Prothrombin, mature alpha-thrombin (F2, Homo sapiens, UniProt P00734)
Method: aptamer microarray, sandwich
Molecule type: DNA with 2'F-ANA
Sample: in vitro
Tested at: 200 nM
Setting: whole 15-mer aptamer, many near background
Added: Cy3 exosite-II aptamer, 400 nM
Reading: higher = stronger binding
Sequence: GGTTGGTGTGGTTGG
| Modification | mean fluorescence intensity [a.u.] |
| --- | --- |
| 2'F-ANA at 1 2 3 5 7 9 10 11 12 14 15 | 136 |
| 2'F-ANA at 1 2 3 4 5 6 12 15 | 97.7 |
| 2'F-ANA at 2 3 4 8 9 10 11 13 | 192 |
| 2'F-ANA at 1 2 4 7 9 10 12 13 | 61.4 |
| 2'F-ANA at 2 5 7 9 13 14 | 50.5 |
| 2'F-ANA at 3 8 9 10 12 15 | 657 |
| 2'F-ANA at 5 6 9 10 12 14 15 | 48.4 |
| 2'F-ANA at 2 3 4 6 8 9 10 14 | 149 |
| 2'F-ANA at 3 5 7 8 9 11 15 | 118 |
| 2'F-ANA at 2 3 4 5 8 11 15 | 76.6 |
| 2'F-ANA at 4 6 8 9 10 12 14 15 | 67.2 |
| 2'F-ANA at 1 2 3 4 8 11 12 13 | 263 |
| 2'F-ANA at 1 2 3 4 6 7 8 9 14 | 65.6 |
| 2'F-ANA at 3 8 9 10 11 12 14 | 464 |
| 2'F-ANA at 1 2 4 7 8 9 10 11 14 | 46.4 |
| 2'F-ANA at 3 4 6 7 9 10 14 15 | 167 |
| 2'F-ANA at 2 3 4 7 8 9 10 12 | 366 |

Study 3
Target: RNA binding protein fox-1 homolog 2, RRM domain, GST-SBP tag (RBFOX2, Homo sapiens, UniProt O43251-10, residues 100-194)
Method: RNA Bind-n-Seq
Molecule type: RNA
Sample: in vitro
Tested at: 365 nM
Setting: natural RNA segment, single round, ends assumed
Reference: no-protein control
Reading: higher = stronger binding
All sequences stand within: GGGAGUUCUACAGUCCGACGAUC … UGGAAUUCUCGGGUGCCAA
Target sequence (chain): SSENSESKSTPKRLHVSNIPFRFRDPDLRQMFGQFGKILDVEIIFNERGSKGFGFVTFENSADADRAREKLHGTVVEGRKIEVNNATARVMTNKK
| Sequence | RBNS enrichment (R) |
| --- | --- |
| AGCUAUAGUACCUUCCAGAUGGGCAAAAGUGUACACUACAGUUGAGGAGCUGAACCUUAUUAGGUUGGAUGUCGAUCAGGAACCUGUUUGCCCUUUGCUGGGAAGCCUUC | 0.385 |
| AGGAAGGUCUGAUUUGCAGGAUUUUUAGAGCAUUAAAAUAACUAUCAGGCAGAAGAAUCUUUCUUCUCGCCUAGGAUUUCAGCCAUGCGCGCGCUCUCUCUCUUUCUCUC | 0.408 |
| GGGAAUAAUUUUUGUUCAGUCCUUCUUAGUGACCAAACUUUAAUUUUUAAGAAUAAUAUAUUGACUUACUGAACUGAAGCAUUCUGAGUUGAAAGGAGCUCCAGAGGAGU | 0.498 |
| UGAAGUUUUCAGAAGCAUGGGCAGUCGGCAGUAGUAACAGAGUCUCACCCCAGAAGGAAAAGAGGGGAUAGGGAAAACAAAAGAUUAUGCAAGCCCCCAGCCCUUCCUGA | 38 |
| UGUAGUUUUAAUUAUGCUGCAAUGUAUAAUCUGGUGUGUUAUUUAAACAGCACUAGUACUGUACACUGGUUUUUUUCCCUUGUGUUUGCUGUUGCACACUGAUUGCUGAG | 0.88 |
| UUUAUAUGUUUUUAGCUUUAGUAUUUAACUUUUUGUAACAAAUAAACCUUUUUUAAAACAAGUUUAACGAAGUGUCCUGUAAUUAUUUUACCUUGGAUGUUGAAAUACUG | 0.641 |
| AUAGUUCGGGUCGGGGCCUUGGGUGGUCCUGCAUGGCCCGGGACUCAUCUCACGGACCCUCCGUUCUGCAUUAAGCCCCAGGUUCUCUUCUGGCUUUGAAAGGGCCCGAG | 0.907 |
| UGGAAUGGAAAGAAUGUGGGAUUUGGAGUCAGACAAGCCUGAGUCCAGUUCCCCGUUUAGAACUCAUUAGCUGUGUGACUCUGGGUGAGUCCCUUAACCCCUCUGAGCCC | 0.309 |

Study 4
Target: Protein max, full length (MAX, Homo sapiens, UniProt P61244-2, residues 1-151)
Method: protein-binding microarray
Molecule type: double-stranded DNA, one strand shown
Sample: in vitro
Tested at: not given
Setting: k-mer, scored over probes, only values ≥0.25
Reading: higher = stronger binding
| Sequence | E-score |
| --- | --- |
| GTGTCGTA | 0.273 |
| CATGTGGG | 0.477 |
| GTGTGACA | 0.309 |
| ATGTGGCC | 0.357 |
| AACACGCG | 0.457 |
| ATGCCGCC | 0.283 |
| AAGCACAT | 0.371 |
| AAGACATG | 0.282 |
| ACAGCGTG | 0.454 |
| CGTGTTGA | 0.303 |
| ACACATGC | 0.462 |
| CGTGCTAG | 0.388 |
| AACATGTG | 0.486 |
| ATGGCTGC | 0.25 |
| GCGCACGC | 0.421 |
| CATGGGCC | 0.283 |
| ACAATGTG | 0.385 |
| ATCCCATG | 0.324 |
| AGGGCGTG | 0.323 |
| ACGCTAAC | 0.309 |
| AAACATGA | 0.278 |
| CGGCCACG | 0.338 |
| CATGGGGA | 0.377 |
| CTTGCACA | 0.268 |
| TCACGCCA | 0.283 |
